# Results gathered from unrelated publications.
# Every numbered part comes from another study and shows a few of its results, in no order. Positions count from the first letter of the parent shown.

# Series 1 — technique: universal PBM; molecule type: double-stranded DNA, one strand shown; sample: in vitro; concentration: not given; direction: higher = stronger binding
# Target: Sal-like protein 4, full length isoform B (SALL4, Homo sapiens, UniProt Q9UJQ4-2, residues 1-616)
# Setting: 8-mer, flanks averaged, mean of replicates
Strand,E-score
ATGGTTGC,-0.127
AGATGGGC,-0.202
GCAAGGGC,-0.278
ATTCTGTC,-0.0542
ATTTCTGC,0.225
AGTGATGC,-0.0835
CTAAGCTC,-0.135
CAAGTGTC,0.0275
ACCGGACT,-0.188
CCTGGTTC,-0.222
CCTGGAAG,-0.185
AATATCCT,0.164
CGTACGTA,0.142
CATGACCG,-0.165
GTTGCAAA,0.0588
AAGTATCA,0.121

# Series 2 — technique: DHFR PCA, deep sequencing; sample: yeast; together with: (+)-ABA 4.8 µM; reference: wild-type fitted maximum; direction: higher = stronger binding
# Target: ABI1, truncated, D143A, DHFR fusion (Arabidopsis thaliana)
# Setting: methotrexate growth selection, single substitutions
# Parent: PYL1, truncated, DHFR fusion (Arabidopsis thaliana); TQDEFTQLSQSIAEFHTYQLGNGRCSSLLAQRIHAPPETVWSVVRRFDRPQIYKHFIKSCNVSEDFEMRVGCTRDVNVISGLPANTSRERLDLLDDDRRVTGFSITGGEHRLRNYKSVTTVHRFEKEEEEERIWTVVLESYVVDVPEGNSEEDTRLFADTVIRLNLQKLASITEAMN
Substitution,relative binding score [%]
S87W,8.29
L94I,58.9
V100S,4.83
H122G,0.523
N61T,79.4
L164T,89.2
E14T,49.6
V136M,75.3
E38Y,11.6
N61M,69.9
R155L,33.7
S59F,19.9
V136H,-5.96

# Series 3 — technique: RNA Bind-n-Seq; molecule type: RNA; sample: in vitro; concentration: not given; reference: input RNA pool; direction: higher = stronger binding
# Target: RING finger protein unkempt homolog, zinc fingers 1-6, GST-SBP tag (UNK, Homo sapiens, UniProt Q9C0B0, residues 30-357)
# Setting: RNA with constant flanks, human and mouse sites, ends assumed
# Residues (chain): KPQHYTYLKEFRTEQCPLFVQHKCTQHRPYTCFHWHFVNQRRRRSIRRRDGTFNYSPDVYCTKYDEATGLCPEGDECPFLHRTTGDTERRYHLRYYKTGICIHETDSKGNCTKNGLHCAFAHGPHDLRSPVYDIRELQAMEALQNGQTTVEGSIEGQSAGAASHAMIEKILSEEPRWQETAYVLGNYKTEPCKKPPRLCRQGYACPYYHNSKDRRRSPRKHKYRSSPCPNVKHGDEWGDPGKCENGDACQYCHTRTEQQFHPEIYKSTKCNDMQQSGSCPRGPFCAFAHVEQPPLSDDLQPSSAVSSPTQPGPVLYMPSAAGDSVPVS
Strand,bound/input enrichment [ratio]
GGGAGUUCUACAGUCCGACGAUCCGAAAUUUGAAUCUCUUUAAGUUAUUCAGACUUGUACACAAACUUGGAGGAUUUGAUAAUAUUGAAAGUGGAGCUGUUUGGAAACAAGUCUACCAAGAUCUUGGAAUCCCUGUCUUAAAUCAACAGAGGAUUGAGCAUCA,0.135
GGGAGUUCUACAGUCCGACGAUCGCUCCUAUUAAUGAAGUAGCACGAUUUAAUCUGAUGCAGGUAGGCCGCCUUUUGCAGCAGUUAGCAAUGACUGGCUCUGAAGAGGGAGAUCCCCGAACAAAGAGCAGCCUUGGAAAGUUUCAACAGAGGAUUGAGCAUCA,0.313
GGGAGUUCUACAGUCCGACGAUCGCAGACACAGUGAAGCCUGAAGCAGAACUGGCUAUCCAUAUUCUGAAAUCUAUGGGCUUAGAAGUAGUUCUGAUGACUGGAGACAACAGUAAAACAGCUAGAUCUAUUGCUUCUCAGGUUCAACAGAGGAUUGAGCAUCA,0.283
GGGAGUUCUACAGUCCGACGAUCGUGAAUCCAGGUACAAACUGGGGGGAGUCUCUCAAGCCUGGUCCCCAGCAGAACUGGGCUCAUAAGCCCCAAGACAACAAUGUGAGUAACUGGGGAGGAGCUGCUUCUGUUAAGCAGACACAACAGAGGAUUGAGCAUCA,0.235
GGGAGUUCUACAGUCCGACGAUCCGCCUGGAUGAGGCUGGUGUUACUGAUGAAGUGCUGGAUUCUGCCAUGCAAGCCUUCUUACUAGAAAUUAUCGUUAAGCAUGGGGAGCCAGCCCCUUAUUUAUGUAAUAAAGAUCCUUUUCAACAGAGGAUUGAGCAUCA,0.359
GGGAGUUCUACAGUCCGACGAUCCCCGGGCUGCAGACGGCCCCAGCUACAGAGGCUCUAUCACCCACGGCACGCCCGCAGACGUCCUCUACAAGGGUACCAUCAGCAGGAUCGUCGGUGAGGACAGCCCAAGUCGCCUUGACCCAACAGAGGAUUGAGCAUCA,0.0716
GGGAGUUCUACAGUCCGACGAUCGAAGCAGAUAAGUGGAGCACGUUGAGCGCCGAUAUUGAGGAGACAUUUAAGACUCAGGACAUAGCUGUGAUUUCUGCCAAGCUAACAGGUAUGCAGAACAGCUUAAUGAUGCUUGUUGAUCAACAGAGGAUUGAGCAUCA,0.127
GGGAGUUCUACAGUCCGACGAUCUCAUAUAUACCAGGUUUCCUCUUUGCAGUAAAUGGGAAGCCUUACUUUGGAGACCAAGAACCCGUGCAAGGAUUUGUGAUGAACUUUUCCAGUGGGGAAAUUAUAGAUGUUUUCAAACCACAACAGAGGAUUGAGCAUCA,0.24

# Series 4 — technique: RNA Bind-n-Seq; molecule type: RNA; sample: in vitro; concentration: 200 nM; setting: whole 134-nt RNA, ends assumed; together with: 150 mM KCl; reference: input library; direction: higher = stronger binding
# Target: Fragile X messenger ribonucleoprotein 1, C-terminal low-complexity region (Fmr1, Mus musculus, UniProt P35922)
Strand,log2 enrichment
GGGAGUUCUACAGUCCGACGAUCAGUCCUGUGCUACACAUCGUAUGUACCGAAUCGGGUUUUUGGUUUUUGGGGUUUUUGGAAAGUAUUAUGUUACGCCGUUCGGAUCUGCACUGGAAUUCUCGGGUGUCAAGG,-0.28
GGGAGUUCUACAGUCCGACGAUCCUCAAGUCCUGUGCUACACAUCGUAUGUACCGAAUCGGAAGGGGAAGGAAGGGGAAAGUAUUAUGUUACGCCGUUCGGAUCUGCACUUCCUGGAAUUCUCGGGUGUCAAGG,0.809
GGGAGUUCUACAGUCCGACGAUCCACAGACAACACGCACCCACACAGACACAGAGGGAAGGGGUUGGGAGGGGGACAGGGUGCACAGCAGGGCGGGGUAGGACCCCAGCCCCUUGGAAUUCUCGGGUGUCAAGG,1.3
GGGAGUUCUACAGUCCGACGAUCGCAGGAAGUAAAAACAAAUGGAAAUGCUUCGGAUAGUGGCAGGGGUGGGGGUUGCUAAGGAAAGGGUGGGAUGGGACUGGGUAAAGAGUUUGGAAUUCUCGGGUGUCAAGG,0.406
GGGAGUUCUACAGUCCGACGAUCCAAGUCCUGUGCUACACAUCGUAUGUACCGAAUCGGUUUUGGGUUUUGGUUUUGGAAAGUAUUAUGUUACGCCGUUCGGAUCUGCACUUCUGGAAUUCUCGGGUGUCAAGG,-0.633
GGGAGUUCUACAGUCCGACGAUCCACAGACAACACGCACCCACACAGACACAGAGGGAAGGGGUUGGGAUGGGGACAGGGUACACAGCAGGGCGGGGUAGGACCCCAGCCCCUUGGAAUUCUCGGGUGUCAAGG,1.14
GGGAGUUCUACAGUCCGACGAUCUGGGAGGUGGAUUUUGUUUAUUUUUUUAGCUCAUUUCCAGGGGUGGGAAUUUUUUUUUAAUAUGUGUCAUGAAUAAAGUCGUUUUUGAAAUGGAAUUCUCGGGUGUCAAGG,0.27
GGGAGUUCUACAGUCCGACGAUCAAGUCCUGUGCUACACAUCGUAUGUACCGAAUCGGGGAGGGGUUUGGGGUUUGGGGAAAGUAUUAUGUUACGCCGUUCGGAUCUGCACUUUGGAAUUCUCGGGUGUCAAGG,1.37
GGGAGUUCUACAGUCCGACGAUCUGUCAGUAUCAUACAUAACAGAGGAAUGCCUGAAGAAGCUGGACACAAAGCAGCAGACCAACACCCUGCUCAACCUGGUGUGGAGGGACUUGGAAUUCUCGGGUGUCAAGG,-0.411

# For quick reference, copied from above (series 4):
Strand,log2 enrichment
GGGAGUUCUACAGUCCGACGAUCCUCAAGUCCUGUGCUACACAUCGUAUGUACCGAAUCGGAAGGGGAAGGAAGGGGAAAGUAUUAUGUUACGCCGUUCGGAUCUGCACUUCCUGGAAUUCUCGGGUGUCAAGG,0.809
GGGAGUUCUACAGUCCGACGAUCCACAGACAACACGCACCCACACAGACACAGAGGGAAGGGGUUGGGAGGGGGACAGGGUGCACAGCAGGGCGGGGUAGGACCCCAGCCCCUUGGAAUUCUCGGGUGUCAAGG,1.3
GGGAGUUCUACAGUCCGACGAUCGCAGGAAGUAAAAACAAAUGGAAAUGCUUCGGAUAGUGGCAGGGGUGGGGGUUGCUAAGGAAAGGGUGGGAUGGGACUGGGUAAAGAGUUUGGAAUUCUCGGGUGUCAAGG,0.406
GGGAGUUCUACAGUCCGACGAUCCAAGUCCUGUGCUACACAUCGUAUGUACCGAAUCGGUUUUGGGUUUUGGUUUUGGAAAGUAUUAUGUUACGCCGUUCGGAUCUGCACUUCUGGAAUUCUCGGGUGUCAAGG,-0.633
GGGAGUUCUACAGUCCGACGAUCCACAGACAACACGCACCCACACAGACACAGAGGGAAGGGGUUGGGAUGGGGACAGGGUACACAGCAGGGCGGGGUAGGACCCCAGCCCCUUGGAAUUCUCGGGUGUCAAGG,1.14
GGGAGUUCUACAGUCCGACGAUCUGGGAGGUGGAUUUUGUUUAUUUUUUUAGCUCAUUUCCAGGGGUGGGAAUUUUUUUUUAAUAUGUGUCAUGAAUAAAGUCGUUUUUGAAAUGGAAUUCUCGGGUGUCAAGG,0.27
